Results gathered from unrelated publications.
Every numbered part comes from another study and shows a few of its results, in no order.
UniProt P53667, sequence (whole entry, looked up): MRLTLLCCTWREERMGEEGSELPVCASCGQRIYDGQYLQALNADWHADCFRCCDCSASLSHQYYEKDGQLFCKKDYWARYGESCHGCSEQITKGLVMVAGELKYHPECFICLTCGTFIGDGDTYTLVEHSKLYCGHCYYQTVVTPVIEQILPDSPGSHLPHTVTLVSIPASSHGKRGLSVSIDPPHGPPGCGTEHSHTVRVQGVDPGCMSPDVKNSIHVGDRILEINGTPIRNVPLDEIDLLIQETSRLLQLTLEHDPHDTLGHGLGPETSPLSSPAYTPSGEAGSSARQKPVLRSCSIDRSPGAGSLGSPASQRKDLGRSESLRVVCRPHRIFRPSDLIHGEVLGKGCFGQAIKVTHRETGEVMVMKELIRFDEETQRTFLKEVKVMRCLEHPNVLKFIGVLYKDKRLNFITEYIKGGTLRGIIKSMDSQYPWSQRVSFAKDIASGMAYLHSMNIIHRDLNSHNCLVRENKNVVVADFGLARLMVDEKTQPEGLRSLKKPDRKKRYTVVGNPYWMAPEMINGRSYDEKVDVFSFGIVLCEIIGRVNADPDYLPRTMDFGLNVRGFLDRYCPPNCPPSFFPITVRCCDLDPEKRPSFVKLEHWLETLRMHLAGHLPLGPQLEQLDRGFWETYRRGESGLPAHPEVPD
UniProt O43683, sequence (whole entry, looked up): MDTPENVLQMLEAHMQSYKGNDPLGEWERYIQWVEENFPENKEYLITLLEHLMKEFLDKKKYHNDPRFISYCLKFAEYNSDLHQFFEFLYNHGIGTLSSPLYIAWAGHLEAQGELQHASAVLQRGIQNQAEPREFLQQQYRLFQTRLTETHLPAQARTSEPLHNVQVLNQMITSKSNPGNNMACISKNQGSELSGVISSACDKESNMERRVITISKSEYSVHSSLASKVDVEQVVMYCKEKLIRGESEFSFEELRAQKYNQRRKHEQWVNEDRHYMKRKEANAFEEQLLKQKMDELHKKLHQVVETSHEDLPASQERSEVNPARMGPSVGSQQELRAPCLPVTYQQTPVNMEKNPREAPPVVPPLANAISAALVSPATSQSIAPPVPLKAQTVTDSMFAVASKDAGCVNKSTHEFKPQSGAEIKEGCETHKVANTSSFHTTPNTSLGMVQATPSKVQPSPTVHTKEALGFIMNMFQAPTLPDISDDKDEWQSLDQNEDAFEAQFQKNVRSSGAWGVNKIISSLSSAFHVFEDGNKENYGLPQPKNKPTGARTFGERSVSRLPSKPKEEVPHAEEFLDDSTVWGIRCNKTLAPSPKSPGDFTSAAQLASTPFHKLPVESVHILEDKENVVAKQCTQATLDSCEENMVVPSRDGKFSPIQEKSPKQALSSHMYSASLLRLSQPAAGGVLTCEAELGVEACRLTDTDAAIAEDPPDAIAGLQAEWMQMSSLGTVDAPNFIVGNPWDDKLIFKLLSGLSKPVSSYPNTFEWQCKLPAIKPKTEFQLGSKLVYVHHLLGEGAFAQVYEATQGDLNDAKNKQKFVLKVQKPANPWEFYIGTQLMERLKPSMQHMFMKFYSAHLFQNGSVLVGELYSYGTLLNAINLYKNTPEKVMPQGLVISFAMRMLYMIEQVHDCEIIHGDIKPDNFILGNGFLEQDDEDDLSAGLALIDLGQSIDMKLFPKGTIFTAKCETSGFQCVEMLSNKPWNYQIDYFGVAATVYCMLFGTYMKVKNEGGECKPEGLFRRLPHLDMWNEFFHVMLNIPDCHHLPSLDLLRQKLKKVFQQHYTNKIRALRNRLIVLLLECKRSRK
UniProt Q8WXR4, sequence (whole entry, looked up): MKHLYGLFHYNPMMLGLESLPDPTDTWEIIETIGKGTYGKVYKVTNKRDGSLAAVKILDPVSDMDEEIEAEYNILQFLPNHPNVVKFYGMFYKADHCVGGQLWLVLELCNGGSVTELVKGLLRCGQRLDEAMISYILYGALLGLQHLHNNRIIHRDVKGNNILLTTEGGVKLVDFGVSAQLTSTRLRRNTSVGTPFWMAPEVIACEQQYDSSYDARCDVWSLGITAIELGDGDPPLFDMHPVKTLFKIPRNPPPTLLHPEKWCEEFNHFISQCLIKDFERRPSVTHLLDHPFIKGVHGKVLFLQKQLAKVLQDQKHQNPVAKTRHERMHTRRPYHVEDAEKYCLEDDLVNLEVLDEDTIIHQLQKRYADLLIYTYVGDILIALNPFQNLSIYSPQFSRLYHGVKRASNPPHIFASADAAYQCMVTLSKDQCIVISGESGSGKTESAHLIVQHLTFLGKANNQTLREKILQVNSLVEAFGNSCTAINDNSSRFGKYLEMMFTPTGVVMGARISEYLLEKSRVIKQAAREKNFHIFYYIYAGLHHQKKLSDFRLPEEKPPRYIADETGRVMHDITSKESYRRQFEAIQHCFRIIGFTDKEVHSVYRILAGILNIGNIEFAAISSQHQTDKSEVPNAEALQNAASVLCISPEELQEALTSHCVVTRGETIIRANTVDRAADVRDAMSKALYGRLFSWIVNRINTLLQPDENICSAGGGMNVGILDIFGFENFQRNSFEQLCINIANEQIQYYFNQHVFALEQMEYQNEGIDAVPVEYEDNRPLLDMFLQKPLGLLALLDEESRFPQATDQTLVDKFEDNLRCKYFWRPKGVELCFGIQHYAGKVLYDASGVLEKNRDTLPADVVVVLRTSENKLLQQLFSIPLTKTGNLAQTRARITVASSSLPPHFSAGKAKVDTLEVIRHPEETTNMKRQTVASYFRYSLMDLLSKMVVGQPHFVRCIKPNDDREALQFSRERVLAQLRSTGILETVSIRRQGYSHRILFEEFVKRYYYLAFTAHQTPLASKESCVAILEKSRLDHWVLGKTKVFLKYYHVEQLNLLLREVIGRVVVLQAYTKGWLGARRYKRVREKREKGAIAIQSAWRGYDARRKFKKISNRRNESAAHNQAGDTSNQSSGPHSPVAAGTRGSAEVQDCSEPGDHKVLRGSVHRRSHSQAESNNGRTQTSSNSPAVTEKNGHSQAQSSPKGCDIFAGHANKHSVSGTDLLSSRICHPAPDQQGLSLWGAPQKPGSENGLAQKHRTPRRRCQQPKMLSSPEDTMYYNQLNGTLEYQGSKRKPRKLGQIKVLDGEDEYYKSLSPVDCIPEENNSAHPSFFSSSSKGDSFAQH
UniProt Q86Y07, sequence (whole entry, looked up): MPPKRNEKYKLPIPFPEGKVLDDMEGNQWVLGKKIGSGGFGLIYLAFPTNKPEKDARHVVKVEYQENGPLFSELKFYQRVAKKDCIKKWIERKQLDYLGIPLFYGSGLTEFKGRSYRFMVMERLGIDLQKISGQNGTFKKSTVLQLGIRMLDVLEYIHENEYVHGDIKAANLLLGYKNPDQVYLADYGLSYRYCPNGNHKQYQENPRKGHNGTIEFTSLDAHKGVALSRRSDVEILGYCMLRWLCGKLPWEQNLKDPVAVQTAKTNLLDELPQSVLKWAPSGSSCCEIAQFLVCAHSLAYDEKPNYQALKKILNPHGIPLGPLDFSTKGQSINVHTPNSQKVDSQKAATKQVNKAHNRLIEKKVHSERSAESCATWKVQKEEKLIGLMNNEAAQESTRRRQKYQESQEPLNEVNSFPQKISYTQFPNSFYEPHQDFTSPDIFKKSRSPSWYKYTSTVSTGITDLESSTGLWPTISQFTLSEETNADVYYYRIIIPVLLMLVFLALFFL
UniProt P42680, sequence (whole entry, looked up): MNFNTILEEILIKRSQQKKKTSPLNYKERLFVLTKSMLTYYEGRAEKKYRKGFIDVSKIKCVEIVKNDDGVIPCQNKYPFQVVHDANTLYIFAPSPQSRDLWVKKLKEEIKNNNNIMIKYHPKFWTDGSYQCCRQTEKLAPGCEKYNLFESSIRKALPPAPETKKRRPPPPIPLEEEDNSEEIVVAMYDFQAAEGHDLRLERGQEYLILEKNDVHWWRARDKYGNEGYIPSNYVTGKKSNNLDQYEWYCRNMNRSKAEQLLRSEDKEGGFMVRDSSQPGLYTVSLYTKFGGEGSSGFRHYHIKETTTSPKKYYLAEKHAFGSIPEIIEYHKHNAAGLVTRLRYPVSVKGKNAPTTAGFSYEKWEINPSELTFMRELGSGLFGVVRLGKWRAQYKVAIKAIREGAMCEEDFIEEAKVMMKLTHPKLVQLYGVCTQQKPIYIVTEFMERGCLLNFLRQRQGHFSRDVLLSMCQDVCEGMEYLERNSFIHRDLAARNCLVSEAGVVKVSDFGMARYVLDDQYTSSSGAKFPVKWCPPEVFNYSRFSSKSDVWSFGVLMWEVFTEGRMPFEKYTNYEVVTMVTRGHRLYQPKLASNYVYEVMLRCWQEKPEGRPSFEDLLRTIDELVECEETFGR

Sample 1 — effect on: enzyme activity; action: inhibitor; tested at: 0.5 µM; baseline: control
Target: RAC-alpha serine/threonine-protein kinase (AKT1, Homo sapiens, UniProt P31749)
UniProt P31749, sequence (whole entry, looked up): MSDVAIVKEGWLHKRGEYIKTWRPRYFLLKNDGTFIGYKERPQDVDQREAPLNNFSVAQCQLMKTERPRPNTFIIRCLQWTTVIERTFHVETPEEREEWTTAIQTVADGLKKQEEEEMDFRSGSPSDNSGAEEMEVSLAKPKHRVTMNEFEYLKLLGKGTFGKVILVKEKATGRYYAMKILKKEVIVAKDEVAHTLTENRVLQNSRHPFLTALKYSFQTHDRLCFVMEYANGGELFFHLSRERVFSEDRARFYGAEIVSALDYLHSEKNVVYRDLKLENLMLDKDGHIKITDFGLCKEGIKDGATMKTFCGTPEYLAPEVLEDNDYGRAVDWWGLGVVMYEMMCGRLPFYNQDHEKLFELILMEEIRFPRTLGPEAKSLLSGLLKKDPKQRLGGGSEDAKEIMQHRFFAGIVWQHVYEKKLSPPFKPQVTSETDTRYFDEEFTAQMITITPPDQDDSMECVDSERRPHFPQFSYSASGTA
| Compound | remaining activity [%] |
| --- | --- |
| O=C1c2ccccc2-c2nc3nnnn3nc21 | 79.7 |
| O=C(c1ccccc1)c1ccc(N2CCOCC2)cc1O | 102 |
| CC(C)n1cnc2c(Nc3cccc(Cl)c3)nc(NCCO)nc21 | 103 |
| FC(F)(F)c1ccc(/C=C/c2nc(COc3ccc(CCCCn4ccnn4)cc3)co2)cc1 | 93.2 |
| N#C/C(=C(/N)SC1C=CC=CC1)c1cccc(C(O)c2ccncc2)c1 (stereo not shown) | 104 |
| C[C@@H](N)[C@H]1CC[C@H](C(=O)Nc2ccncc2)CC1 | 86.2 |
| CC(C)N(CCC(=O)c1ccc2ccccc2c1)Cc1ccccc1 | 100 |
| COc1cc2c(N3CCN(C(=O)Nc4ccc(OC(C)C)cc4)CC3)ncnc2cc1OCCCN1CCCCC1 | 102 |
| NC(=O)c1ccc(-c2nc(-c3ccc4c(c3)OCCO4)c(-c3ccccn3)[nH]2)cc1 | 103 |
| COc1cc2c(Nc3ccc(Br)cc3F)ncnc2cc1OCC1CCN(C)CC1 | 94.7 |
| CC(C)(C)c1nc2c3cc[nH]c(=O)c3c3cc(F)ccc3c2[nH]1 | 86.8 |
| O=c1c(-c2ccc(F)cc2)c(-c2ccncc2)[nH]n1-c1ccc(Cl)cc1 | 96.4 |
| O=C1NC(=O)/C(=C/c2ccc3c(c2)OC(F)(F)O3)S1 | 98.2 |
| CCN(CC)CCCCN1c2ccccc2Oc2ccc(Cl)cc21 | 112 |
| O=C(O)/C=C/c1cc(Br)c(Br)c(Br)c1Br | 97.4 |
| CNc1cc2c(Nc3cccc(Br)c3)ncnc2cn1 | 98.8 |
| c1cc(-c2cnn3cc(-c4ccc(OCCN5CCCCC5)cc4)cnc23)ccn1 | 104 |
| Nc1nc(Nc2ccc(S(N)(=O)=O)cc2)nn1C(=S)Nc1c(F)cccc1F | 103 |
| Clc1ccc(Nc2nnc(Cc3ccncc3)c3ccccc23)cc1 | 103 |

Sample 2 — tested at: 1 µM
SMILES: Cc1nc(C2CCN(C(=O)c3ccc(OC(F)(F)F)cc3N)CC2)c2ncc(N3CCN(C)CC3)cc2n1
| target | effect on | method | remaining binding |
| --- | --- | --- | --- |
| Tyrosine-protein kinase Tec (TEC, Homo sapiens, UniProt P42680) | cell-free assay | competition with immobilised ligand | 96% |
| Mast/stem cell growth factor receptor Kit (KIT, Homo sapiens, UniProt P10721, D816H) | cell-free assay | competition with immobilised ligand | 100% |
| Ribosomal protein S6 kinase alpha-3, C-terminal kinase domain (RPS6KA3, Homo sapiens, UniProt P51812) | cell-free assay | competition with immobilised ligand | 82% |
| Cyclin-dependent kinase 11B (CDK11B, Homo sapiens, UniProt P21127) | cell-free assay | competition with immobilised ligand | 87% |
| Leukocyte tyrosine kinase receptor (LTK, Homo sapiens, UniProt P29376) | cell-free assay | competition with immobilised ligand | 86% |
| Mitotic checkpoint serine/threonine-protein kinase BUB1 (BUB1, Homo sapiens, UniProt O43683) | cell-free assay | competition with immobilised ligand | 96% |
| Membrane-associated tyrosine- and threonine-specific cdc2-inhibitory kinase (PKMYT1, Homo sapiens, UniProt Q99640) | cell-free assay | competition with immobilised ligand | 100% |
| Serine/threonine-protein kinase PLK3 (PLK3, Homo sapiens, UniProt Q9H4B4) | cell-free assay | competition with immobilised ligand | 100% |
| Serine/threonine-protein kinase WNK4 (WNK4, Homo sapiens, UniProt Q96J92) | cell-free assay | competition with immobilised ligand | 100% |
| Tyrosine-protein kinase ABL1, phosphorylated (ABL1, Homo sapiens, UniProt P00519, Y253F) | cell-free assay | competition with immobilised ligand | 98% |
| Tyrosine-protein kinase ABL1, phosphorylated (ABL1, Homo sapiens, UniProt P00519, F317I) | binding |  | 76% |
| Receptor-type tyrosine-protein kinase FLT3 (FLT3, Homo sapiens, UniProt P36888, R834Q) | cell-free assay | competition with immobilised ligand | 100% |
| Serine/threonine-protein kinase ICK (CILK1, Homo sapiens, UniProt Q9UPZ9) | cell-free assay | competition with immobilised ligand | 84% |
| LIM domain kinase 1 (LIMK1, Homo sapiens, UniProt P53667) | cell-free assay | competition with immobilised ligand | 93% |
| Serine/threonine-protein kinase VRK2 (VRK2, Homo sapiens, UniProt Q86Y07) | cell-free assay | competition with immobilised ligand | 100% |
| Myosin-IIIb (MYO3B, Homo sapiens, UniProt Q8WXR4) | binding | competition with immobilised ligand | 71% |
| Death-associated protein kinase 1 (DAPK1, Homo sapiens, UniProt P53355) | cell-free assay | competition with immobilised ligand | 95% |
| Activin receptor type-2A (ACVR2A, Homo sapiens, UniProt P27037) | cell-free assay | competition with immobilised ligand | 100% |

Sample 3 — cell line: Huh-7; tested at: 10 µM; time: 24 h
| SMILES | viability [%] |
| --- | --- |
| CO[C@@]1(NC(=O)CSCC#N)C(=O)N2C(C(=O)O)=C(CSc3nnnn3C)CS[C@@H]21 | 102 |
| CC(=O)O[C@H]1C[C@@]2(C)[C@@H](C[C@@H](O)[C@H]3[C@@]4(C)CC[C@@H](O)[C@@H](C)[C@@H]4CC[C@@]32C)/C1=C(\CCC=C(C)C)C(=O)O | 95.9 |
| CC1=C(/C=C/C(C)=C/C=C/C(C)=C/C=C/C=C(C)/C=C/C=C(C)/C=C/C2=C(C)CCCC2(C)C)C(C)(C)CCC1 | 104 |
| O[C@H]1[C@H](O)[C@@H](O)[C@H](O)[C@@H](O)[C@H]1O | 104 |
| O=C1CN(/N=C/c2ccc(-c3ccc([N+](=O)[O-])cc3)o2)C(O)=N1 | 96.5 |

Single results of other studies
| SMILES | host | dose | notes | measurement | value |
| --- | --- | --- | --- | --- | --- |
| CC(C)n1cnc(-c2ccc(F)cc2)c1-c1ncc(C(=O)Nc2ccc(N3CCN(C)CC3)cc2)[nH]1 | human, idiopathic pulmonary fibrosis | 30 mg once daily | trial, treatment-emergent | patients with ECG T wave abnormal | 0% |

For quick reference, copied from above (sample 1):
| Compound | remaining activity [%] |
| --- | --- |
| O=C(O)/C=C/c1cc(Br)c(Br)c(Br)c1Br | 97.4 |
| CNc1cc2c(Nc3cccc(Br)c3)ncnc2cn1 | 98.8 |
| COc1cc2c(Nc3ccc(Br)cc3F)ncnc2cc1OCC1CCN(C)CC1 | 94.7 |
| O=c1c(-c2ccc(F)cc2)c(-c2ccncc2)[nH]n1-c1ccc(Cl)cc1 | 96.4 |
| Nc1nc(Nc2ccc(S(N)(=O)=O)cc2)nn1C(=S)Nc1c(F)cccc1F | 103 |
| N#C/C(=C(/N)SC1C=CC=CC1)c1cccc(C(O)c2ccncc2)c1 (stereo not shown) | 104 |
